Results gathered from unrelated publications.
Each numbered part is a random draw from the data of one study; scales do not carry over between parts. Substitutions count along the parent as printed.

Sample 1
Target: Interferon regulatory factor 5, full length, phosphomimetic (IRF5, Homo sapiens, UniProt Q13568-2, residues 1-514, K96S/S451D/S453D/S456D/S462D)
Method: protein-binding microarray
Form: double-stranded DNA, one strand shown
Medium: in vitro
Concentration: 250 nM
Setting: 60-bp whole probe
With: salmon DNA 0.4 mg/ml
Relative to: random background probes
Reading: higher = stronger binding
Measurement: log fluorescence
All sequences stand within: GCCTAGCAC … GTCTTGATTCGCTTGACGCTGCTG
TTAGGTATCGGTACTGGGTTAGTGCTA: 5.93 z-score
TATGTTCCTTTAGCACTTTGGTGCTAG: 0.309 z-score
GACGATTTCAGACTGCAGACGTGCTAG: 0.282 z-score
TTAGGACTGGGGGATCGGTTAGTGCTA: 0.425 z-score
AATAGCTTTTCATTTTTTAACGTGCTA: 1.47 z-score
TTATATCTCAGTCTCGATTAGTGCTAG: 1.2 z-score
TCATGTAACTCCTATCCAACTGTGCTA: 0.462 z-score
CACTCTTTCCTCACCATACTGTGCTAG: 0.712 z-score
GACGGTCTGGGTTTCGGGACGTGCTAG: 2.23 z-score
GACGGACAGGACACTGGGGACGTGCTA: -0.56 z-score
TAGTTTCTAAAACTCTTTATGTGCTAG: 2.19 z-score
TCATTTTTGCTTACGATGCAGTGCTAG: 1.21 z-score
TCACTTTGCTCATTTTTCACTGTGCTA: 1.28 z-score
TTAGGTATCGACTTTAGGTTAGTGCTA: 2.89 z-score
CTAGAACTGAGTATCGATTAGTGCTAG: 7.05 z-score
TCAATTTTGGTTTTCATACTGTGCTAG: 2.94 z-score
GACGGTTTCGACACTGTGGACGTGCTA: 4.21 z-score
GACGGTAACGGTCTCGGGACGTGCTAG: -0.0885 z-score
ATAGGTTTCCTTTCCCTTTAGTGCTAG: 1.95 z-score
CTAGGTATCGGACTGGGTTAGTGCTAG: 1.16 z-score
TTAGGTATCCTTAGCCTTTAGTGCTAG: -0.222 z-score
TTAGATATCAGGATCGATTAGTGCTAG: 0.913 z-score

Sample 2
Target: RNA binding protein fox-1 homolog 2, RRM domain, GST-SBP tag (RBFOX2, Homo sapiens, UniProt O43251-10, residues 100-194)
Method: RNA Bind-n-Seq
Form: RNA
Medium: in vitro
Concentration: 365 nM
Setting: natural RNA segment, single round, ends assumed
Relative to: no-protein control
Reading: higher = stronger binding
Measurement: RBNS enrichment (R)
All sequences stand within: GGGAGUUCUACAGUCCGACGAUC … UGGAAUUCUCGGGUGCCAA
Residues (chain): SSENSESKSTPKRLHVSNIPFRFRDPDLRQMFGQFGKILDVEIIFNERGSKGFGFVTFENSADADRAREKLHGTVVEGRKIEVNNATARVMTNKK
UCAUGCAUUUAGAUUUAUAUUUUUGCCAGAAAAUACAAGGUUAUAAUAAAACUAAGAACUACCAUUUUUUCUUUUCUUUUAACCUGUUCUUUUUUUGAGAAUAGUUUCUA: 1.19
UCUCCUAGCUCUGGAGGUGCUGCUCUAGGGCAGGGAAUUAUGGGAGAAGUGGGGGCAGCCCAGGCGGUUUCACGCCCCACACUUUGUACAGACCGAGAGGCCAGUUGAUC: 0.323
AGCAAACUAUCUUUGAGUCAAAAAAAGUUGGAUAACUCAUCUAUAUUUGAAAUAAUGCUGUCUGAAUGGCCAACAUCCCAAGAAUGUAUUAAAAACAGCAACCCUGCCUA: 1.63
UUAUGAAUAGAGACAUAUUAAAAUAAUGUUUACAUCUUAGAAAAAACAUAGAUAGUGCUAGUAAUAUUACUUAUAACUGUAAUAUAUAGAUUCAGAAAUACAUUUUCAUU: 0.912
CAGUUCCGGUUAUGUUUUUCUCCAAAACCUGAACAUUUUUACUCUGUUGGCUCAUUCUAUUUUGACUAAUGUUACAAAGUACUGAAAAAACUGUAGAAUAGAUAUUUUUA: 0.682
UGAGUAUUAGAGAGCUUGUCUUUCAAGGCAGGUUCCUGGGGCUUCAGGGCUAGGAGGGAGGAGCCUGCCCUUUUAACAGAACCCCAGUCACAUGCGGCUCAAGUCACUCA: 0.527
UGAUACUGCCACAUGCUGCACAGUGCCCACCCAUCAGAAGACACCUUGAGACUGUCCCACAGUGCUCCUCUAGAGGCUGCUGGGGCCACCCUGACAUCACUCAGCACUCA: 0.343
CUAAUAUAUAUUGUAUUUUUAUUUGAUAGCUUGGGAUUUAAAACAUCUCUGUUGAAGGCUUUUGAUCCUUUUGAGAAAUAAAGAUCUGAAAGAAAUGGCAUAAUCUUAAA: 0.552
AACAAAACAAAACCUGAGAAAAUGCAAAACUGGAACUUUUUGCAAUAUUCUGAAAGAUAAUCUUCCUUUGGCUCAUUCUAUGACAUGUACAACUCUUAAGAAAGCCAUAC: 0.83
UGUGCAAAAACAUGGAAAAUUGUCACUGACUUUGUUUUGAGGUUUCCCCCAUUUUGCUGCCUUUUGGGACACUUCGUUAAAUACUGGUCUUGGCUGCAUUCUUUUUUUUU: 0.909
CACUCGCUGCCGGGACCCUUUCACUGCCCCGGUGGAGUGAAUAGAGGAUGAGGGGCCCUGACCCUGUGUCUCCAACUGCUGCACCCCAUCCCGACCCUGUCUCCGCCACC: 0.357
UAUUAAGUGGUAAUACUUGAAAAGGAGCACUUAUACCAUAAGUCUUAGGAAAUAAUGUUUGUAAUAAACUUAACUAUGUUACAUAUCAACAGGCAAAAAUAUAGAAUGUU: 0.567

Sample 3
Target: CCNB3, cyclin fold, Cln2 fusion (human)
Method: yeast growth competition, sequencing
Medium: yeast
Setting: weak parent motif
Relative to: not given
Reading: higher = stronger binding
Measurement: normalised enrichment score
Parent: SLBP docking peptide (human); ARYKRKLLINDFG
D11L: 0.243
R2E: 0.341
G13K: 0.355
Y3W: 0.0889
K4S: 0.105
N10M: 0.0671
I9M: 0.376
N10S: 0.288
K6W: 0.233
R5V: 0.488
K6T: 0.318
Y3F: 0.195
K4D: 0.0162
A1C: -0.206
I9F: 0.277
K4A: -0.122

Sample 4
Target: Phosphate system positive regulatory protein PHO4, full length, GST-tagged (PHO4, Saccharomyces cerevisiae, UniProt P07270, residues 1-312)
Method: competition protein-binding microarray
Form: double-stranded DNA, one strand shown
Medium: in vitro
Concentration: 2 µM
Setting: whole 60-bp probe, lowest competitor level
With: Cbf1 competitor, 0.05 µM
Reading: higher = stronger binding
Measurement: fluorescence intensity
All sequences stand within: … GTCTTGATTCGCTTGACGCTGCTG
Construct (chain): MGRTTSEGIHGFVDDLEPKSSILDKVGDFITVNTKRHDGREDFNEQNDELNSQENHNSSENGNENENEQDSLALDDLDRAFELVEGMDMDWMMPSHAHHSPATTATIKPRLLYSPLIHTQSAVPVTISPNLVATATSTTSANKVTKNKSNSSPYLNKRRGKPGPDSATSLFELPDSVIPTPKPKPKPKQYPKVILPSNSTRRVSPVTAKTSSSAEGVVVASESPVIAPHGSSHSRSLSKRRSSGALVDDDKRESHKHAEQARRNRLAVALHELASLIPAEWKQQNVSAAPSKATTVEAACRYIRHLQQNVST
TATTAGATAACTTAGCACGTGAAAAAGAAACGTTTT: 16500 a.u.
ATGGCACTCATTGATGGCGTGATGGAGCAGAACCTC: 5510 a.u.
CATACCCAACCTTGCTCCGTGGGTGAAGATATTTGT: 6480 a.u.
CAGTATCATCGTCATTGGTAGTATTCACTAGGGGAC: 3570 a.u.
TCTATGTAACTACGTCTTGTGATGACCGGTATAGCT: 3600 a.u.
CATCCCACCCAATCGCACGGGTCTTCTGTGCGAATG: 9770 a.u.
ATTCTTGGTACTTTAGTCGTGATTGTTTGACATGTC: 4870 a.u.
AAGCGCAAGTGATGGAATGTGATGCTTAAAGGCTAT: 4880 a.u.
CGGGGTTAAGTTTGATGCGTGGGTGGCTTGCAGCAG: 8550 a.u.
CTAACGAAGGTTTGGTAAGTGGGTGACAAGCCAAGT: 3820 a.u.
TGCGCAACAACTTGTATCGTGGGTGTATGTCTAGAA: 7080 a.u.
TGCGCAACAACTTGAACAGTGGGTGTATGTCTAGAA: 4150 a.u.
CATACCCAACCTTTTCACGTGAAGTAAGATATTTGT: 11500 a.u.
CGTCCTAGTGATTTTCACGTGGGATCCATGAGGAAG: 16900 a.u.
AGGTTGATGAAGAAGGACGTGCTTTCCCAGTTGAGT: 8350 a.u.
AAAGCGGTAATTTTTCACGTGGGATCAAATATCTAT: 13500 a.u.
GTCTTGTCTCATTGTCACAGGACTTTCCCCACTTCA: 4580 a.u.

Sample 5
Target: Histone acetyltransferase KAT6A, both winged helices, GST fusion (KAT6A, Homo sapiens, UniProt Q92794, residues 1-181)
Method: protein binding microarray
Form: double-stranded DNA, one strand shown
Medium: in vitro
Concentration: not given
Setting: 8-mer, flanks averaged, mean of 2 arrays, mostly near background
Relative to: not given
Reading: higher = stronger binding
Measurement: E-score
Residues (chain): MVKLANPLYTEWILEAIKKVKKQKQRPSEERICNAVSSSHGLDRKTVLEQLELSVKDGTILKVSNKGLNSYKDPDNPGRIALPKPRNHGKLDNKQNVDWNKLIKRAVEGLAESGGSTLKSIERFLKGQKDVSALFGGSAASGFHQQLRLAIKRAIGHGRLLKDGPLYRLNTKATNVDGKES
GACAACAA: -0.187
GTGCAGTA: 0.0329
AAAGAAGT: -0.135
ATCTCATC: -0.175
AGCGCGAA: 0.272
CGGGCCCG: 0.342
CGACTCTC: -0.0436
AATAAGGC: -0.0445
CTTCTGCA: 0.014
GTCTCATA: -0.0837
GCTAACGA: -0.0235
CTCTGCTA: -0.122
CAGCCTAG: -0.208
CGTGAACC: 0.153
GGGATCTA: -0.103
ATTGGTTA: -0.177
TGAAATCA: 0.103
CGGCCTCA: 0.157
GTGACTTA: 0.00236
ACTGTGGC: -0.169
CATGCGAA: 0.0162
ACCTCCAC: -0.106
CAAATCTA: -0.0957
TCTGGGAA: -0.134

Mixed results
PhoQ, residues 284 288 289 292 302 303 STVVAA  fold induction (PhoP, residues 12 14 15 18 19 TPLRH (Escherichia coli, UniProt P23836); Sort-seq, refers to: YFP reporter; E. coli; PhoQ-PhoP variant library, with: 10 µM Mg2+; relative to: high Mg2+ state, higher = stronger signaling): 0.763
